Measured values of several laboratories.
A part holds a random share of what one study measured. “And” joins repeats or separate records; there may be more than shown. Numbers after ± are the reported error.
Chain of UniProt O60285 (whole entry, looked up): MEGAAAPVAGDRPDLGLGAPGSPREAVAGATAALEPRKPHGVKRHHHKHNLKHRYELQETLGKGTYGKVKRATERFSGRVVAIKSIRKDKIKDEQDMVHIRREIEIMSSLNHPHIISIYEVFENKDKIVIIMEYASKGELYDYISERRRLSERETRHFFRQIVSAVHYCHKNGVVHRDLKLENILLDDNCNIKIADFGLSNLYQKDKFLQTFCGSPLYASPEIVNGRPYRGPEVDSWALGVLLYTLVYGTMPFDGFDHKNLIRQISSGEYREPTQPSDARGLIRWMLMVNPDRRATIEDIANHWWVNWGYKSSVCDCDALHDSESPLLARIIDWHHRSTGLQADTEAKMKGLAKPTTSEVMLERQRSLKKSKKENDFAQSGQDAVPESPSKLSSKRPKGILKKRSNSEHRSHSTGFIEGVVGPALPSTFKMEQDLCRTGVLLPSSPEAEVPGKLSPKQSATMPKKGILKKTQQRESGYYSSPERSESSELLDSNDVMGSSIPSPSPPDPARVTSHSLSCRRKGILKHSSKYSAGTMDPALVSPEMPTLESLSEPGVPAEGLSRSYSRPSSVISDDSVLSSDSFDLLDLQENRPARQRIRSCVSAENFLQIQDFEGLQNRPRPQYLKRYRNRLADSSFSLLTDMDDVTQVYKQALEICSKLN
Chain of UniProt P15056 (whole entry, looked up): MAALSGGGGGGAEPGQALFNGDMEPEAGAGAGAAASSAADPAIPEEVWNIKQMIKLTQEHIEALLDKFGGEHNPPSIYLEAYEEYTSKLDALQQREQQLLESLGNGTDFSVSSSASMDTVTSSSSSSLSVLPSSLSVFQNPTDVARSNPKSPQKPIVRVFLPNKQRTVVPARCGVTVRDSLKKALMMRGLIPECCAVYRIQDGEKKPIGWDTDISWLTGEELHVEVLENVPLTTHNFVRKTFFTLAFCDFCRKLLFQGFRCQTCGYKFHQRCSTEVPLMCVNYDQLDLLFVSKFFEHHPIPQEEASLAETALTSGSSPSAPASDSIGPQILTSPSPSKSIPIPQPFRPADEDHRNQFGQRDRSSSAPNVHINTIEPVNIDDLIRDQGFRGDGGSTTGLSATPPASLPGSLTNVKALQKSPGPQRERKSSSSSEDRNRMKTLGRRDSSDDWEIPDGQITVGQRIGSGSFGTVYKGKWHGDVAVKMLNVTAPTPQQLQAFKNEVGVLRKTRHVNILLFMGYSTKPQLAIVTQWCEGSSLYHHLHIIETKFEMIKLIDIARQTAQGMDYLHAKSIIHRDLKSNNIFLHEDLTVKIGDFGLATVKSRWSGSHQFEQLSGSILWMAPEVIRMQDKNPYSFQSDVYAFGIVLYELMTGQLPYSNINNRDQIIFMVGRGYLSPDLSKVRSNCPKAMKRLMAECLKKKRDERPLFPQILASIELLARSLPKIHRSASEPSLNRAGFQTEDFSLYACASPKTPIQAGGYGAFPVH
Chain of UniProt Q2M2I8 (whole entry, looked up): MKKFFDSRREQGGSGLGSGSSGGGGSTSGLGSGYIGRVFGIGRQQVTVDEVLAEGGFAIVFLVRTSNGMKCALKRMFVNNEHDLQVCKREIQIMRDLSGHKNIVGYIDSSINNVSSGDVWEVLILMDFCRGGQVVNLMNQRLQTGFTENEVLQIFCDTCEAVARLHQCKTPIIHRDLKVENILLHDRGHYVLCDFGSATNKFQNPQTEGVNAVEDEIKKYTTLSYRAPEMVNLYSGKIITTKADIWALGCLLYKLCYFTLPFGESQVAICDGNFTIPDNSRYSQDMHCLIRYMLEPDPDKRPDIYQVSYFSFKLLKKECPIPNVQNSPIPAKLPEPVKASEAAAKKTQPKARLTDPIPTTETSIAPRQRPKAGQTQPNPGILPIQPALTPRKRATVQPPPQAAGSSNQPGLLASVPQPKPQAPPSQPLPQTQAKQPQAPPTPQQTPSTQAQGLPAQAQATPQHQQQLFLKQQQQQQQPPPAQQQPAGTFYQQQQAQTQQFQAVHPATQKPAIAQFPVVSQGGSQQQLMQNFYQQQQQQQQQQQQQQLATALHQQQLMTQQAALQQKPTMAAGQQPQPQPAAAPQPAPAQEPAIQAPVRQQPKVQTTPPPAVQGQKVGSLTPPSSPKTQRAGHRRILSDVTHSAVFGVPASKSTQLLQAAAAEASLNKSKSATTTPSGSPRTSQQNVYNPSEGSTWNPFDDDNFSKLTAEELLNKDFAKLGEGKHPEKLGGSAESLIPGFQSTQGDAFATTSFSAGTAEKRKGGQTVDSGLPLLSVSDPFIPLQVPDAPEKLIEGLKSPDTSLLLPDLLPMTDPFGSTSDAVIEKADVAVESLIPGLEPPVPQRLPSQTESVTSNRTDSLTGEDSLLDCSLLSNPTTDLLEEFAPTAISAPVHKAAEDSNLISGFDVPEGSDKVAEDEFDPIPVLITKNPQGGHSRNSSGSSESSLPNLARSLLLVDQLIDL
Chain of UniProt Q13470 (whole entry, looked up): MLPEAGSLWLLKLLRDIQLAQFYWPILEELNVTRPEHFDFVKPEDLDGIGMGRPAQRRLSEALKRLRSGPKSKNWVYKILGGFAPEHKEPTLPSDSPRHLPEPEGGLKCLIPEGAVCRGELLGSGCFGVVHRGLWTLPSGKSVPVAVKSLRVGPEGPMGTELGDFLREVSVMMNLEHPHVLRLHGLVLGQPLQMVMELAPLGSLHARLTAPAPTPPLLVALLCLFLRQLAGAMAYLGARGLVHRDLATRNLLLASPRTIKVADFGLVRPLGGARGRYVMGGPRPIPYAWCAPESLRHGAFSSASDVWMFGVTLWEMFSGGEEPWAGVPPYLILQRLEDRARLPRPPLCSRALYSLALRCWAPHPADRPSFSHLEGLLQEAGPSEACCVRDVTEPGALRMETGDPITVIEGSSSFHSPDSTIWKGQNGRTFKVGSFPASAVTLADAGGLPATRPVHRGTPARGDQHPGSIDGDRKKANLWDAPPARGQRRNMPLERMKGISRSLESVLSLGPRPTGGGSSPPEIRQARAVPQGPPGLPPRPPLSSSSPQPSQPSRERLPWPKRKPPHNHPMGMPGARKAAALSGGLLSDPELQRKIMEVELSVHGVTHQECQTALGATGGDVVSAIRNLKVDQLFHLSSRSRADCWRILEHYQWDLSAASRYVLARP
Chain of UniProt P11802 (whole entry, looked up): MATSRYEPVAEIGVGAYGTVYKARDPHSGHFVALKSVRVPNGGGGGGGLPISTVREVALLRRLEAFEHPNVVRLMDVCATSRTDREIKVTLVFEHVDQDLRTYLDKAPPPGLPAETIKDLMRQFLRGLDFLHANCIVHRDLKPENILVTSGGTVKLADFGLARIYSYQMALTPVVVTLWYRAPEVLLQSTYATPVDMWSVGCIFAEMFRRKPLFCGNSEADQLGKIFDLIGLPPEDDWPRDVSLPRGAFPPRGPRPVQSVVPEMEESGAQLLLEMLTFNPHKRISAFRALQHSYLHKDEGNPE

Sample 1
Target: Dual specificity tyrosine-phosphorylation-regulated kinase 2 (DYRK2, Homo sapiens, UniProt Q92630)
Chain of UniProt Q92630 (whole entry, looked up): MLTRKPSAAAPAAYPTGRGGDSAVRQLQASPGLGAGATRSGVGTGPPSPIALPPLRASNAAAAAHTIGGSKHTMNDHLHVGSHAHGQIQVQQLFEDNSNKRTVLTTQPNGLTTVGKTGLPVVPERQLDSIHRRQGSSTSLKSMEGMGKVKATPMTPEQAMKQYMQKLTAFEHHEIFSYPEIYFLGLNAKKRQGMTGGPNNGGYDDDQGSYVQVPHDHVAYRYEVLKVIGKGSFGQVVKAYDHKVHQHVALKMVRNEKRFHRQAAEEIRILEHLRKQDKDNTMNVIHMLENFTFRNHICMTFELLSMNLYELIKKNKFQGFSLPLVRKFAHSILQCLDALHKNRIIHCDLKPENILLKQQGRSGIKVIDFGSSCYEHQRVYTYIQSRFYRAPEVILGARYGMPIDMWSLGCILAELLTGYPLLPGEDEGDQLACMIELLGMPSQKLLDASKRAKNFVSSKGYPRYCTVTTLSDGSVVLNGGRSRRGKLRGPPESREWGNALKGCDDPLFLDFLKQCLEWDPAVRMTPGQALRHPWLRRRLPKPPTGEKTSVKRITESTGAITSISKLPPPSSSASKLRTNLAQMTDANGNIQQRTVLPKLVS
Effect on: enzyme activity
Mode: inhibitor
Tested at: 0.5 µM
Reference: control
| SMILES | remaining activity |
| --- | --- |
| O=C1Nc2ccccc2/C1=C\c1c(Cl)[nH]c2ccccc12 | 103% |
| O=C(c1cc2cc(O)ccc2[nH]1)c1cc2cc(O)ccc2[nH]1 | 89% |
| Oc1cccc(-c2nc(N3CCOCC3)c3oc4ncccc4c3n2)c1 | 97.6% |
| CCCNC(=O)Nc1ccc(Oc2ncnc3cc(OC)c(OC)cc23)cc1Cl | 108% |
| O=C1Nc2ccc(Br)cc2/C1=C/c1cc2c([nH]1)CCCC2 | 90.8% |
| Cc1cc(Nc2cc(N3CCN(C)CC3)nc(Sc3ccc(NC(=O)C4CC4)cc3)n2)[nH]n1 | 101% |
| CN1CCN(c2ccc3nc(-c4c(N)c5c(F)cccc5[nH]c4=O)[nH]c3c2)CC1 | 105% |
| N#Cc1cnc2cnc(NCc3cccnc3)cc2c1Nc1ccc(F)c(Cl)c1 | 95.5% |
| COc1cccc(-c2cc(=O)c3ccccc3o2)c1N | 92.5% |
| O=C1NC(=O)c2c1c1c3ccccc3[nH]c1n1cncc21 | 64.1% |
| O=C1Cc2c([nH]c3ccc(Br)cc23)-c2ccccc2N1 | 107% |
| CCCCc1c(-c2ccc(OC)cc2)[nH]c2nccnc12 | 92.9% |
| c1ccc(-c2n[nH]c3c2oc2ccccc23)cc1 | 95.4% |
| CN(C)S(=O)(=O)c1ccc2c(c1)/C(=C/c1cc3c([nH]1)CCCC3)C(=O)N2 | 103% |
| O=c1cc(N2CCOCC2)oc2c(-c3ccccc3)cccc12 | 90.8% |
| COc1ccc2c(c1)c(C1=C(c3c[nH]c4ccccc34)C(=O)NC1=O)cn2CCCN(C)C | 92.4% |
| c1ccc2c(-c3ccncc3)c[nH]c2c1 | 77.5% |

Sample 2
SMILES: CCC(=O)N[C@H]1CC[C@@H](C(=O)N(C)c2ccc(-c3nc4ccccc4o3)cc2)C1
Tested at: 1 µM
| target | assay | remaining binding [%] |
| --- | --- | --- |
| AP2-associated protein kinase 1 (AAK1, Homo sapiens, UniProt Q2M2I8) | binding | 100 |
| Serine/threonine-protein kinase ULK1 (ULK1, Homo sapiens, UniProt O75385) | cell-free assay, competition with immobilised ligand | 78 |
| Non-receptor tyrosine-protein kinase TNK1 (TNK1, Homo sapiens, UniProt Q13470) | cell-free assay, competition with immobilised ligand | 100 |
| Mitogen-activated protein kinase kinase kinase kinase 4 (MAP4K4, Homo sapiens, UniProt O95819) | cell-free assay, competition with immobilised ligand | 91 |
| Serine/threonine-protein kinase 3 (STK3, Homo sapiens, UniProt Q13188) | cell-free assay, competition with immobilised ligand | 100 |
| Tyrosine-protein kinase ABL1, phosphorylated (ABL1, Homo sapiens, UniProt P00519) | cell-free assay, competition with immobilised ligand | 72 |
| Cyclin-dependent kinase 4, with cyclin D1 (CDK4, Homo sapiens, UniProt P11802) | cell-free assay, competition with immobilised ligand | 79 |
| Receptor-type tyrosine-protein kinase FLT3, autoinhibited (FLT3, Homo sapiens, UniProt P36888) | cell-free assay, competition with immobilised ligand | 85 |
| Receptor-type tyrosine-protein kinase FLT3 (FLT3, Homo sapiens, UniProt P36888, F691L/ITD) | cell-free assay, competition with immobilised ligand | 84 |
| Tyrosine-protein kinase Fyn (FYN, Homo sapiens, UniProt P06241) | cell-free assay, competition with immobilised ligand | 100 |
| Dual specificity protein kinase CLK1 (CLK1, Homo sapiens, UniProt P49759) | cell-free assay, competition with immobilised ligand | 93 |

Sample 3
SMILES: Cc1cc2c(C(N)=O)c(N)n(-c3c(C)ccc(O)c3C)c2nc1C
| target or system | assay | setting | inhibition |
| --- | --- | --- | --- |
| Serine/threonine-protein kinase B-raf (BRAF, Homo sapiens, UniProt P15056) | kinase activity, ADP-Glo | 10 µM | 99.7% |
| NCI-H1568 | cell proliferation | 10000 nM | 96.4% |
| KLE | cell proliferation | 41.15 nM | -0.07% and 1.42% and -0.56% |
| NCI-H1568 | cell growth | 4.572 nM | 7.87% |
| RKO | cell proliferation | 3333.33 nM | 98.6% |
| MKN-1 | cell proliferation | 3333.33 nM | 99.7% |
| KLE | cell proliferation | 10000 nM | 96.4% |
| HuCCT-1 | cell proliferation | 4.57 nM | 2.79% and 3.17% and 5.69% |
| NCI-H1568 | cell proliferation | 41.15 nM | 9.54% and 7.77% |
| HCC1569 | automated capillary immunoblot, refers to: CDK1 phospho-Thr14 | 12.35 nM | 39.7% |
| RKO | cell proliferation | 370.37 nM | -0.26% and 7.73% |
| HCC1806 | cell proliferation | 3333.33 nM | 99.2% |
| U-251 MG | cell growth | 10000 nM | 97.4% |
| MDA-MB-436 | cell proliferation | 4.57 nM | -3.99% and -1.14% and -3.13% |
| KLE | cell proliferation | 4.572 nM | 1.98% and -2.23% and -3.88% |
| HCC1569 | cell proliferation | 1111.11 nM | 94.1% |
| RKO | cell proliferation | 1.524 nM | -1.71% and 6.69% |
| NCI-H1568 | cell growth | 1111.11 nM | 42.7% |

Sample 4
Compound: COc1cc(C(=O)N2CCC(N3CCN(C)CC3)CC2)ccc1Nc1ncc2c(n1)N(C)c1ccccc1C(=O)N2C
| target | assay | setting | remaining activity [%] |
| --- | --- | --- | --- |
| BRSK1 | kinase activity | 10 µM | 78 ± 5 |
| TRKA | kinase activity | 1 µM | 79 ± 8 |
| GCK | kinase activity | 1 µM | 93 ± 5 |
| NUAK family SNF1-like kinase 1 (NUAK1, Homo sapiens, UniProt O60285) |  | 1 µM | 50 ± 3 |
| PRK2 | kinase activity | 1 µM | 74 ± 10 |
| DCLK1 | kinase activity, KiNativ profiling | 1 µM | 22 |
| MEKK1 | kinase activity | 10 µM | 83 ± 7 |
| VEG-FR | kinase activity | 1 µM | 64 ± 5 |
| HIPK2 | kinase activity | 1 µM | 76 ± 4 |
| IKKe | kinase activity | 10 µM | 88 ± 4 |
| IKKb | kinase activity | 1 µM | 103 ± 5 |
| LCK | kinase activity | 1 µM | 106 ± 13 |
| CHK2 | kinase activity | 1 µM | 38 ± 9 |

Excerpt of the above (sample 1):
| SMILES | remaining activity |
| --- | --- |
| O=C1Nc2ccc(Br)cc2/C1=C/c1cc2c([nH]1)CCCC2 | 90.8% |
| Cc1cc(Nc2cc(N3CCN(C)CC3)nc(Sc3ccc(NC(=O)C4CC4)cc3)n2)[nH]n1 | 101% |
| CN(C)S(=O)(=O)c1ccc2c(c1)/C(=C/c1cc3c([nH]1)CCCC3)C(=O)N2 | 103% |
| CCCCc1c(-c2ccc(OC)cc2)[nH]c2nccnc12 | 92.9% |
| O=c1cc(N2CCOCC2)oc2c(-c3ccccc3)cccc12 | 90.8% |
| COc1ccc2c(c1)c(C1=C(c3c[nH]c4ccccc34)C(=O)NC1=O)cn2CCCN(C)C | 92.4% |
| O=C(c1cc2cc(O)ccc2[nH]1)c1cc2cc(O)ccc2[nH]1 | 89% |
| Oc1cccc(-c2nc(N3CCOCC3)c3oc4ncccc4c3n2)c1 | 97.6% |
| O=C1NC(=O)c2c1c1c3ccccc3[nH]c1n1cncc21 | 64.1% |
